Published values from different studies.
Each line is one published result; not all experiments were run side by side. Values joined by “and” are separate records of one study, mostly repeats; a detail may differ. ± gives the spread as reported.
MAPK8: Mitogen-activated protein kinase 8 (MAPK8, Homo sapiens, UniProt P45983)
Sodium- and chloride-dependent glycine transporter 2: Sodium- and chloride-dependent glycine transporter 2 (Homo sapiens, UniProt Q9Y345)
Gria1/Gria2: Glutamate receptor AMPA 1/2 (Gria1/Gria2, Rattus norvegicus, UniProt P19490+P19491)
CA12: Carbonic anhydrase 12 (CA12, Homo sapiens, UniProt O43570)

Structure (SMILES)	target or system	assay	test system	setting	scale	endpoint	value
CCCCCC(O)/C=C/C=O (stereo not drawn)	EEF1A1 (Homo sapiens, UniProt P68104)	acylphosphate-ATP probe SILAC-ABPP	ZAK-transfected HEK293T	100 µM, with: acylphosphate-ATP probe	baseline: DMSO over compound-treated	probe labelling ratio	0.64
CC(C)Oc1cc(Cl)ccc1CNc1cc(-c2ccccc2)nc2ncnn12	GPR3 (Homo sapiens, UniProt P46089, L128A)	cAMP level, cAMP GloSensor	–	3 µM	higher = more cAMP	cAMP luminescence	1380 a.u. and 1150 a.u. and 1600 a.u. and 1760 a.u.
C#CCOC(=O)[C@]1(C)C=C(C(=O)OC(C)(C)C)C(=O)CC1	MAPK8	enzyme activity, D-SENSOR	–	400 µM, single replicate	–	normalized kinase activity	0.0879 and 0.0814 and 0.0733
Nc1nc2nn[nH]c2c(=O)[nH]1	Trypanosoma cruzi	reporter mRNA translation, inhibitor, item: Renilla luciferase mRNA	cell-free extract	concentration not given, test 3	baseline: positive over negative control	translation activity	96.7%
CC[C@H](C)[C@@H]1NC(=O)[C@H](C(C)C)NC(=O)[C@H](C(C)C)NC(=O)[C@H](CC(C)C)NC(=O)C[C@@H](C(=O)N[C@@H](Cc2c[nH]c3ccccc23)C(=O)N[C@@H](CC(N)=O)C(=O)N[C@@H](C)C(=O)N2CCC[C@H]2C(=O)NCC(=O)N[C@@H](Cc2c[nH]c3ccccc23)C(=O)N[C@@H](Cc2ccc(O)cc2)C(=O)O)NC(=O)[C@H](C)NC(=O)[C@H](CCC(N)=O)NC(=O)[C@H](C(C)C)NC1=O	TLR4 (Homo sapiens, UniProt O00206)	antagonist, ELISA	–	1 µg/mL, with: LPS	baseline: DMSO control, lower means stronger antagonism	OD450 in LPS binding ELISA	0.411 a.u. and 0.405 a.u. and 0.423 a.u. and 0.417 a.u.
O=C(N[C@@H](Cc1ccc(OCCCCC2CCNCC2)cc1)C(=O)O)c1nc2ccccc2o1.O=C(O)C(F)(F)F	Integrin alpha-IIb/beta-3 (Homo sapiens, UniProt P05106+P08514)	inhibitor, flow cytometry	washed platelets, human	30 nM, 30 min, room temperature, with: ADP 20 µM, Alexa647-fibrinogen	higher = more binding	fibrinogen binding MFI	199000 a.u. and 198000 a.u.
O[C@@H]1[C@@H](O)[C@H](Cl)C=C[C@H]1O	GBA1 (Homo sapiens, UniProt P04062)	continuous progress curves	–	pH 5.2, 25 °C, 0.1% BSA	–	kinact/Ki	6.9 ± 0.1 M⁻¹ s⁻¹
C[Si](C)(C)C[C@H](CN)CC(=O)O	alpha1 adrenergic receptor, rat	binding, radioligand binding	–	250 µM, with: [3H]prazosin	–	inhibition	-3%
CC1=CC(C)=[N+]2C1=C(CCCN1CCCCC1)c1c(C)cc(C)n1[B-]2(F)F	Sodium- and chloride-dependent glycine transporter 2	MS binding competition	–	10 µM	–	remaining specific binding	89.5 ± 8.2%
N=C(N)NCCS(=O)(=O)O	SLC6A6 (Homo sapiens, UniProt P31641, G62A)	binding, microscale thermophoresis	–	62.5 µM, room temperature, with: 50 nM labelled protein	higher = more binding	normalised MST signal	0.0177
COc1cc2nccc(Nc3ccc(Oc4ccccc4)cc3)c2cc1OC	SMUG1 (Homo sapiens, UniProt Q53HV7)	enzyme activity, activator, fluorescence	–	2 µM	baseline: control	activity	110 ± 40%
COc1ccc(/C=C/CN2CCCC(CCC(=O)NCc3ccc(F)c(F)c3)C2)cc1 (stereo not drawn)	Trypanosoma cruzi	reporter mRNA translation, inhibitor, item: Renilla luciferase mRNA	cell-free extract	concentration not given, test 1	baseline: positive over negative control	translation activity	149% and 114%
CC(C)[C@@H]1NC(=O)[C@H](Cc2ccccc2)NC(=O)CSC[C@@H](C(N)=O)NC(=O)[C@H](CCC(=O)O)NC(=O)[C@H](CO)NC(=O)[C@H](Cc2c[nH]c3cccc(Cl)c23)NC(=O)[C@H](C2CCCCC2)NC(=O)[C@H](C(C)C)NC(=O)[C@H](Cc2ccc(O)cc2)NC(=O)[C@H](CC(=O)O)NC(=O)[C@H](Cc2c[nH]c3ccccc23)NC(=O)[C@H](Cc2ccc(N)nc2)NC(=O)[C@H](Cc2c[nH]c3ccc(Cl)cc23)NC(=O)[C@H](CCC(=O)O)NC1=O	Interleukin-1 receptor-like 2 (IL1RL2, Homo sapiens, UniProt Q9HB29)	reporter gene (SEAP), inhibitor, HEK-Blue IL-36R reporter	HEK-Blue IL-36R cells	0.0017 µM, 6 h, with: IL-36β 3 ng/mL	–	remaining activity	93.5%
CC[C@H](C)[C@@H]1NC(=O)[C@H](Cc2ccccc2)NC(=O)[C@H](CCC(=O)O)NC(=O)[C@H](CCCNC(=N)N)NC(=O)CNC(=O)[C@@H](NC(=O)[C@H](CC(C)C)NC(=O)[C@H](CCCNC(=N)N)NC(=O)[C@@H](NC(=O)CNC(=O)[C@H](Cc2ccc(O)cc2)NC(=O)[C@@H]2CCCN2C(=O)[C@H](C)NC(=O)[C@H](C)NC(=O)[C@@H](N)CCCNC(=N)N)C(C)C)CSSC[C@@H]2NC(=O)[C@@H](NC(=O)[C@H](CO)NC(=O)[C@H](CO)NC(=O)[C@H](CO)NC(=O)[C@H](CC(C)C)NC(=O)CNC(=O)[C@H](C)NC(=O)[C@H](CC(C)C)NC(=O)[C@@H](NC(=O)[C@@H](N)CC(=O)O)C(C)C)CSSC[C@H](NC(=O)CNC(=O)[C@H](Cc3c[nH]c4ccccc34)NC(=O)[C@H](CCCCN)NC2=O)C(=O)N[C@@H](CO)C(=O)N[C@@H](CCCCN)C(=O)N[C@@H](CO)C(=O)N[C@@H](CCC(=O)O)C(=O)N[C@@H]([C@@H](C)CC)C(=O)N[C@@H](CO)C(=O)N[C@@H](CO)C(=O)N[C@@H](CC(C)C)C(=O)N[C@H](C(=O)O)CSSC[C@@H](C(=O)NCC(=O)NCC(=O)N[C@@H](CO)C(=O)N[C@@H](CCCNC(=N)N)C(=O)N[C@@H](Cc2c[nH]c3ccccc23)C(=O)O)NC(=O)[C@H]([C@@H](C)O)NC(=O)[C@H](Cc2ccccc2)NC(=O)[C@H]([C@@H](C)CC)NC(=O)[C@H](C(C)C)NC(=O)[C@H](C)NC(=O)[C@H](CCCNC(=N)N)NC1=O	RXFP4 (Homo sapiens, UniProt Q8TDU9, Q205A)	–	HEK-293T	–	baseline: wild type	Emax	92.3 ± 6.49%
CCCCCCCCCCCCC/C=C/C=O	PSMB8 (Homo sapiens, UniProt P28062)	competitive isoTOP-ABPP	proteome, soluble, MDA-MB-231	100 µM, 60 min, with: iodoacetamide probe	baseline: DMSO over compound-treated, higher = stronger cysteine blockade	isoTOP-ABPP competition ratio	1.1
COC(=O)Cc1cc2c(cc1C(=O)c1cccc(Br)c1)OCO2	Gria1/Gria2	glutamate-evoked current, whole-cell patch clamp	HEK-293T	concentration not given, glutamate alone after washout, with: glutamate	–	current amplitude after recovery	539 ± 41 pA
COCCOc1cc2ncnc(Nc3cccc(-c4cn(CC(=O)Nc5ccc(S(N)(=O)=O)cc5)nn4)c3)c2cc1OCCOC	CA12	–	–	–	baseline: Ki hCA VA over Ki hCA XII	selectivity ratio	1.19
COC(=O)[C@@]1(C(C)C)C=C(C(=O)Nc2cccc(C(=O)Nc3ccc(Nc4nccc(-c5cccnc5)n4)c(C)c3)c2)C(=O)CC1	MAPK8	kinase activity, inhibitor	–	0.5487 µM, unit not given, with: 10 mM glutathione	baseline: no inhibitor	remaining activity	0.567
CCCCCCCCOP(=O)(Cc1ccccc1)O[C@@H]1O[C@H](CO)[C@@H](O)[C@H](O)[C@H]1F (stereo partly drawn)	GBA1 (Homo sapiens, UniProt P04062, L483P)	chaperone	MEF expressing GBA L444P	100 µM, three days, then 24 h washout	baseline: untreated	relative activity	0.03
O=C1c2sc(-c3ccc(N4CCC(F)C4)nc3F)nc2CCN1c1cccnc1 (stereo not drawn)	TAR DNA-binding protein 43, aggregated (TARDBP, Homo sapiens, UniProt Q13148)	saturation autoradiography	human, FTLD-TDP type A brain sections	40.71 nM	–	specific binding	107 nM
CCc1ccc(N2CCC(O)C2)cc1 (stereo not drawn)	Uridine nucleoside ribohydrolase (Trichomonas vaginalis, UniProt A2FTT0)	enzyme activity, 19F NMR	–	200 µM, 1-fold dilution	–	inhibition after jump dilution	100%
CC(=O)c1cnc(NS(=O)(=O)c2ccc(Cl)c(Cl)c2)nc1	17-beta-hydroxysteroid dehydrogenase 13 (Homo sapiens, UniProt Q7Z5P4)	enzyme activity	human hepatocytes, scramble siRNA, culture medium	96 h	baseline: scramble siRNA control	oxidized product ratio	0.108 and 0.113 and 0.101 and 0.132
O=C(O)Cc1cc2c(cc1C(=O)c1cccc(I)c1)OCO2	Gria1/Gria2	glutamate-evoked current, whole-cell patch clamp	HEK-293T	concentration not given	baseline: glutamate alone	current amplitude ratio	3.42 ± 0.2
CC1=CC(C)=[N+]2C1=C(CCCN1CCC(O)CC1)c1c(C)cc(C)n1[B-]2(F)F	Sodium- and chloride-dependent glycine transporter 2	MS binding competition	–	10 µM	–	remaining specific binding	89.7 ± 2.8%
COc1ccc2c(c1)C1CC(C)(N2)c2c(C)nc3ccc(OC)cc3c21 (stereo not drawn)	Glideosome-associated protein 50 (GAP50, Plasmodium falciparum, UniProt Q8I2X3)	binding, surface plasmon resonance	–	1:1 binding model	–	koff	0.00757 s⁻¹
Cc1c(Cl)c(=O)oc2cc(OCCCCCCSC#N)ccc12	CA12	stopped-flow CO2 hydration	–	–	baseline: Ki CA II over Ki CA XII	selectivity ratio	> 2180
C=CC(=O)N1CCCC(n2c(=O)c3ncccc3n(Cc3ccc(Oc4ccccc4)cc3)c2=O)C1 (stereo not drawn)	PPIF (Homo sapiens, UniProt P30405)	thermal proteome profiling	cell proteome	unit not given	baseline: vehicle	melting temperature shift	-4.7
COc1cc(C2C(NC(=O)c3ccc(NC(=O)OC(C)(C)C)cc3)(C(=O)O)C(c3ccc(OC(=O)c4cccs4)c(OC)c3)C2(NC(=O)c2ccc(NC(=O)OC(C)(C)C)cc2)C(=O)O)ccc1OC(=O)c1cccs1 (stereo not drawn)	Glucagon-like peptide 1 receptor, with β-arrestin 1 (GLP1R, Homo sapiens, UniProt P43220)	β-arrestin 1 recruitment, agonist, BRET	–	–	baseline: GLP-1 response	Emax	10.9 ± 2.78%
CN(Cc1ccc(/C=C/C(=O)NO)cc1)CC12CC3CC(CC(C3)C1)C2	human PPARgamma receptor	agonist radioligand binding	–	0.05 µM	–	inhibition	0%
COC(=O)Cc1cc2c(cc1C(=O)c1ccc(Cl)cc1Cl)OCO2	Gria1/Gria2	glutamate-evoked current, whole-cell patch clamp	HEK-293T	concentration not given, glutamate alone after washout, with: glutamate	–	current amplitude after recovery	539 ± 38 pA

Some of these lines once more:
Structure (SMILES)	target or system	assay	test system	setting	scale	endpoint	value
N=C(N)NCCS(=O)(=O)O	SLC6A6 (Homo sapiens, UniProt P31641, G62A)	binding, microscale thermophoresis	–	62.5 µM, room temperature, with: 50 nM labelled protein	higher = more binding	normalised MST signal	0.0177
COc1cc2nccc(Nc3ccc(Oc4ccccc4)cc3)c2cc1OC	SMUG1 (Homo sapiens, UniProt Q53HV7)	enzyme activity, activator, fluorescence	–	2 µM	baseline: control	activity	110 ± 40%
COc1ccc(/C=C/CN2CCCC(CCC(=O)NCc3ccc(F)c(F)c3)C2)cc1 (stereo not drawn)	Trypanosoma cruzi	reporter mRNA translation, inhibitor, item: Renilla luciferase mRNA	cell-free extract	concentration not given, test 1	baseline: positive over negative control	translation activity	149% and 114%
CC(C)[C@@H]1NC(=O)[C@H](Cc2ccccc2)NC(=O)CSC[C@@H](C(N)=O)NC(=O)[C@H](CCC(=O)O)NC(=O)[C@H](CO)NC(=O)[C@H](Cc2c[nH]c3cccc(Cl)c23)NC(=O)[C@H](C2CCCCC2)NC(=O)[C@H](C(C)C)NC(=O)[C@H](Cc2ccc(O)cc2)NC(=O)[C@H](CC(=O)O)NC(=O)[C@H](Cc2c[nH]c3ccccc23)NC(=O)[C@H](Cc2ccc(N)nc2)NC(=O)[C@H](Cc2c[nH]c3ccc(Cl)cc23)NC(=O)[C@H](CCC(=O)O)NC1=O	Interleukin-1 receptor-like 2 (IL1RL2, Homo sapiens, UniProt Q9HB29)	reporter gene (SEAP), inhibitor, HEK-Blue IL-36R reporter	HEK-Blue IL-36R cells	0.0017 µM, 6 h, with: IL-36β 3 ng/mL	–	remaining activity	93.5%
